# Measured values gathered from unrelated publications.
# Each numbered part is a random draw from the data of one study; scales do not carry over between parts.

# Set 1 — technique: protein binding microarray; form: double-stranded DNA, one strand shown; matrix: in vitro; tested at: not given; relative to: not given; reading: higher = stronger binding
# Target: Histone acetyltransferase KAT6A, winged helix 2, GST fusion (KAT6A, Homo sapiens, UniProt Q92794, residues 85-181)
# Setting: 8-mer, flanks averaged, mean of 2 arrays, mostly near background
# Target sequence (chain): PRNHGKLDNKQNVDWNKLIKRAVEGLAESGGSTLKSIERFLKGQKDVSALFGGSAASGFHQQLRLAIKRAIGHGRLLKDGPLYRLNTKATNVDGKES
Oligonucleotide,E-score
CCAAATCA,-0.0339
GGTGGGTA,-0.121
AGAGCATC,0.0654
AGGGTGGC,-0.00843
ACCTCTTC,0.0611
CCTATTGC,-0.109
ACCAGTGA,-0.0676
AAATGCCT,0.0656
AGTGGTCC,-0.0334
AACCGTTC,-0.0183
CCATACAA,-0.164
AACATTCT,-0.115
ACTGGACG,-0.111
AAAATAGT,-0.129
AGGACTTC,0.00185
AGCGCGTC,-0.0256
CGGGTCGA,0.114

# Set 2 — technique: RNA Bind-n-Seq; form: RNA; matrix: in vitro; tested at: 1 µM; setting: whole 134-nt RNA, ends assumed; together with: 150 mM KCl; relative to: input library; reading: higher = stronger binding
# Target: Ras GTPase-activating protein-binding protein 1, RRM domain (G3BP1, Homo sapiens, UniProt Q13283)
# Sequence of UniProt Q13283 (whole entry, looked up): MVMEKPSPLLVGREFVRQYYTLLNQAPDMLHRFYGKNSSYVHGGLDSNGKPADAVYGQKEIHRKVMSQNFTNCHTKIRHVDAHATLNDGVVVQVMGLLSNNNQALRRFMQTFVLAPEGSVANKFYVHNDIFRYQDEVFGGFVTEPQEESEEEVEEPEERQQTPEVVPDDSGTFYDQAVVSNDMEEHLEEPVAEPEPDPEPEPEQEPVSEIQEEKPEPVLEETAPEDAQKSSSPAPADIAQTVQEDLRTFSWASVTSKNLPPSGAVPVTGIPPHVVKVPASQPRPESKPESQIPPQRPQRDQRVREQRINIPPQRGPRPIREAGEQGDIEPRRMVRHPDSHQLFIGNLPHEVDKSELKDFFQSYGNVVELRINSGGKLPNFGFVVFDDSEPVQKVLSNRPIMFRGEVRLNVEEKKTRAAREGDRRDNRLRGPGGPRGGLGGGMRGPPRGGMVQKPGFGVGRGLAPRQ
Oligonucleotide,log2 enrichment
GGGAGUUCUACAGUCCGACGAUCAGUCCUGUGCUACACAUCGUAUGUACCGAAUCGGUUUUUUUGGAAAAAAAGGAAAGGAAAGUAUUAUGUUACGCCGUUCGGAUCUGCACUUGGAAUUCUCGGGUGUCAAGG,-0.451
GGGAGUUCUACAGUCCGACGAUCUGGUGGACCCGCAGCAGCUGGGCAUGUUCACGGAGGGCGAGCUGAUGUCGGUGGGUAUGGACACGUUCAUCCACCGCAUCGACUCCACCGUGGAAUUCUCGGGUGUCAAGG,-0.58
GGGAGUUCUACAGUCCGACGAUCUGUGCUACACAUCGUAUGUACCGAAUCGGGGUUUUUUUGGGGAAAAAAAGGGGAAAAAGGGGAAAGUAUUAUGUUACGCCGUUCGGAUCUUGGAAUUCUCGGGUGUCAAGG,0.712
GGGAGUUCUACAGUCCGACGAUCUAACUUUAGAGGAGGAUCUGAUGGAUAUGGCAGAGGACGUGGAUUUGGGGAUGGCUAUAAUGGGUAUGGAGGAGGACCUGGAGGUGGCAAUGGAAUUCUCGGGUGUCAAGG,-0.521
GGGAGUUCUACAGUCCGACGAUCCAAGUCCUGUGCUACACAUCGUAUGUACCGAAUCGGGUGGGAAAAAGGGAAAGGGAAAGUAUUAUGUUACGCCGUUCGGAUCUGCACUUCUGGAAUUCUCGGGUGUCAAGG,0.985
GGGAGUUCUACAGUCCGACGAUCACCAUGCAGGUGGGCAUCUUUGGGAAGUGGGGCAAGGGGGGGAUAGGGAGGGGGGGAACACUUUGGGAACAGGUGGUCCCAGGUCGUUUCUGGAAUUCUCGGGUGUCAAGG,0.348
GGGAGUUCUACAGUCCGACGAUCCCUCAAGUCCUGUGCUACACAUCGUAUGUACCGAAUCGGCCGGGGCCGGCCGGAAAGUAUUAUGUUACGCCGUUCGGAUCUGCACUUCCAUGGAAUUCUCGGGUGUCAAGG,-0.31
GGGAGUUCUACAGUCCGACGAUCCAGCAGCAGAGUGAGUGGAUUUUAUUUUUCGUUAUUGUUGGUGGUUUAAAAAAUUCCCCCCAUGUAAUUAUUGUGAACACCUUGCUUUGUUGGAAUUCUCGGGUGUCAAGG,-0.146
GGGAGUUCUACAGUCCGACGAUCGCAGGAAGUAAAAACAAAUGGAAAUGCUUCGGAUAGUGGCAGGGGUGGGGGUUGCUAAGGAAAGGGUGGGAUGAAAGUGGGUAAAGAGUUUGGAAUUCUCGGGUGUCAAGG,1.28
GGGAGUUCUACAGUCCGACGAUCACCAUGCAGGUGGGCGUCUUUGGGAAGUGGGGCAAGGGGGGGAUAGGGAGGGGGGUAACACUUUGGGAACAGGUGGUCCCAGGUCGUUUCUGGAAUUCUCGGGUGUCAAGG,-0.518
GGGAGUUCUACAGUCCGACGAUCUAACUUUAGAGGAGGAUCUGAUGGAUAUGGCAGUGGGCGUGGAUUUGGGGAUGGCUAUAAUGGGUAUGGAGGAGGACCUGGAGGUGGCAAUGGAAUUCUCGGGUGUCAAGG,-0.575
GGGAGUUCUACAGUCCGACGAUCAAGUCCUGUGCUACACAUCGUAUGUACCGAAUCGGUUUUUUUGGUGGUUUUUUUGGAAAGUAUUAUGUUACGCCGUUCGGAUCUGCACUUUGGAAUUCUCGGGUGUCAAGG,-0.474
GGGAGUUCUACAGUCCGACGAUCUCCUGUGCUACACAUCGUAUGUACCGAAUCGGGGAAAGGGGUUUUUUUGGGGUUUGGGGAAAGUAUUAUGUUACGCCGUUCGGAUCUGCAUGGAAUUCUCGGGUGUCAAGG,0.834
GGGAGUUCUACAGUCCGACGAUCUCCUGUGCUACACAUCGUAUGUACCGAAUCGGGGAAAAAAGGGAAAAAAGGAAAAAAGGGAAAGUAUUAUGUUACGCCGUUCGGAUCUGCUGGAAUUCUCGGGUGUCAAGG,0.0575

# Set 3 — technique: protein-binding microarray; form: double-stranded DNA, one strand shown; matrix: in vitro; tested at: 250 nM; setting: 60-bp whole probe; together with: salmon DNA 0.4 mg/ml; relative to: random background probes; reading: higher = stronger binding; all sequences stand within: GCCTAGCAC … GTCTTGATTCGCTTGACGCTGCTG
# Target: Interferon regulatory factor 7, full length, phosphomimetic (IRF7, Homo sapiens, UniProt Q92985, residues 1-503, S101K/S471D/S472D/S475D/S476D/S477D/S483D/S484D/S487D)
# Sequence of UniProt Q92985 (whole entry, unmodified, looked up): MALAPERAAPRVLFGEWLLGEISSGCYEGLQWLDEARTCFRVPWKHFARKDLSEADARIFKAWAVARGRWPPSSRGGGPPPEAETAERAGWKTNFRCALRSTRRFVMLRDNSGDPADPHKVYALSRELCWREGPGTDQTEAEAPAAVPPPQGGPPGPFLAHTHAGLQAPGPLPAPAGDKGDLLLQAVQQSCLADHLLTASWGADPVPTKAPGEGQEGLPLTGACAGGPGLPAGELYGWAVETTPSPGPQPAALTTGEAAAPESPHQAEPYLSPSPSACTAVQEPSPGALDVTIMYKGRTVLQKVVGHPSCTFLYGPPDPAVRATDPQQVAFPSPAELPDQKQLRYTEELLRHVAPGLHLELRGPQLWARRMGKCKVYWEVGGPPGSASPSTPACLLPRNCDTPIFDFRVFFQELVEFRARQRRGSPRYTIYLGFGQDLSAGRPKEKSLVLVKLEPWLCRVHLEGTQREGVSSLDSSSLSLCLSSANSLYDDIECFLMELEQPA
Oligonucleotide,log fluorescence [z-score]
TCAGTTTTCAGTTTCACACTGTGCTAG,4.14
TTTGGACTGGGTCTCGGTTAGTGCTAG,0.617
GACGATTCCAGTTTCGAGAAGTGCTAG,2.65
GTCGAACTGAGTTTCGAGACGTGCTAG,4.38
GACGATCTGAGACTGGAGACGTGCTAG,-0.239
ATCTTTTTCCTAATTGAACCGTGCTAG,2.59
TTATAACTGGGGACTGGATTAGTGCTA,0.149
TTAGGTTCCGGTTTCGGCTAGTGCTAG,7.81
TTAGGACTGCTTTTCCATTAGTGCTAG,1.29
GACGGACTGGGGCCTGGGGACGTGCTA,-0.682
GAAGGTATCGGGTATCGGGACGTGCTA,0.381
CGAGTTTCTATTTTCTGAATGTGCTAG,9.91
GACGGTTTCCTTTTCTTGACGTGCTAG,6.16
AACGATTTCAGTATCGAGACGTGCTAG,0.498
TTAGAACCGAGTTTCGATTAGTGCTAG,8.53
TCTCTGCTCCTTCTGACATCGTGCTAG,0.0274
GACGGTATCGGGTATCGGGGCGTGCTA,0.206

# Single results of other studies
Molecule,target,test,system,setting,scale,endpoint,value
"PhoQ, residues 284 288 289 292 302 303 DDMDFR","PhoP, residues 12 14 15 18 19 SYFRT (Escherichia coli, UniProt P23836)","Sort-seq, measured: YFP reporter",E. coli,"PhoQ-PhoP variant library, together with: 10 µM Mg2+","relative to: high Mg2+ state, higher = stronger signaling",fold induction,0.736

# Repeated from above (set 2):
Oligonucleotide,log2 enrichment
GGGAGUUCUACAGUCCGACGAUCCCUCAAGUCCUGUGCUACACAUCGUAUGUACCGAAUCGGCCGGGGCCGGCCGGAAAGUAUUAUGUUACGCCGUUCGGAUCUGCACUUCCAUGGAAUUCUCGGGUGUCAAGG,-0.31
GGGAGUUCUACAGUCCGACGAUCCAGCAGCAGAGUGAGUGGAUUUUAUUUUUCGUUAUUGUUGGUGGUUUAAAAAAUUCCCCCCAUGUAAUUAUUGUGAACACCUUGCUUUGUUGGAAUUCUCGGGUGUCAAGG,-0.146
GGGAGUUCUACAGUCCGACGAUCGCAGGAAGUAAAAACAAAUGGAAAUGCUUCGGAUAGUGGCAGGGGUGGGGGUUGCUAAGGAAAGGGUGGGAUGAAAGUGGGUAAAGAGUUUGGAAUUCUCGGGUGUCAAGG,1.28
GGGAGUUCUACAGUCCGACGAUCACCAUGCAGGUGGGCGUCUUUGGGAAGUGGGGCAAGGGGGGGAUAGGGAGGGGGGUAACACUUUGGGAACAGGUGGUCCCAGGUCGUUUCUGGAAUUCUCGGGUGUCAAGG,-0.518
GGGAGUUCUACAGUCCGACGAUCUAACUUUAGAGGAGGAUCUGAUGGAUAUGGCAGUGGGCGUGGAUUUGGGGAUGGCUAUAAUGGGUAUGGAGGAGGACCUGGAGGUGGCAAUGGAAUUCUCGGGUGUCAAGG,-0.575
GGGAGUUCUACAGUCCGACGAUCAAGUCCUGUGCUACACAUCGUAUGUACCGAAUCGGUUUUUUUGGUGGUUUUUUUGGAAAGUAUUAUGUUACGCCGUUCGGAUCUGCACUUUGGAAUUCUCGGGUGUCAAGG,-0.474
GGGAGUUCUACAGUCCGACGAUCUCCUGUGCUACACAUCGUAUGUACCGAAUCGGGGAAAGGGGUUUUUUUGGGGUUUGGGGAAAGUAUUAUGUUACGCCGUUCGGAUCUGCAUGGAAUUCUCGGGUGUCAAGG,0.834
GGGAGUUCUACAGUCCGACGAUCUCCUGUGCUACACAUCGUAUGUACCGAAUCGGGGAAAAAAGGGAAAAAAGGAAAAAAGGGAAAGUAUUAUGUUACGCCGUUCGGAUCUGCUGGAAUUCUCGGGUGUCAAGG,0.0575
